# Published values collected from several papers.
# Every numbered part comes from another study and shows a few of its results, in no order. Substitutions count along the parent as printed.

# Study 1
# Target: RNA binding protein fox-1 homolog 2, RRM domain, GST-SBP tag (RBFOX2, Homo sapiens, UniProt O43251-10, residues 100-194)
# Method: RNA Bind-n-Seq
# Form: RNA
# Medium: in vitro
# Tested at: 365 nM
# Notes: natural RNA segment, single round, ends assumed
# Relative to: no-protein control
# Reading: higher = stronger binding
# Constant ends, left off below: GGGAGUUCUACAGUCCGACGAUC … UGGAAUUCUCGGGUGCCAA
# Construct (chain): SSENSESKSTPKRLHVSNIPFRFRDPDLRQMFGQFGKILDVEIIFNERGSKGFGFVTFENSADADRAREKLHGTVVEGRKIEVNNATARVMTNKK
Oligonucleotide,RBNS enrichment (R)
GUUUCAGUUUUGAAGUGUGUACUUUCUCCUCUGUGUGUGCCAAUUACAUAUUAGAGAACAAGGAAUGUGUACUUUGGUGGCUUUGAACCAAGAAAAGGUUUUAAGCCUAC,0.277
CCCCCGAGUUGUGAAAGCUGCGACGUAGCAGUGACCUCAGCAGUCCCUAUGUUUUCCCCCUUUGAAAAUUUUUCUCAGUUAAAUUAAGCUACUGAUUUGAAUUUGUUUUU,0.511
GUCCAAGGAAGGGGCCUGGUGGUGCUCCACUUGCAGUUCUUUAAAGAAUGCUGCUUUUUAUUCUCCUAACCCUUUCAAGUGGGUGCAGACUUCUCGUUAGCAGCUGGAAG,0.598
UGCGAAAACGAUGCCCACCUGCCCAUCUGUCCAUCAGCCUCCCUUCUCGGUCCUCACCAGCCCAUCACUUAUAGUGGGCUCAUCAGGAGGAGCAGGGGAGGAGGACAGAG,0.211
GAUUUUGUUUUCUACCCUUCAAGGUAAACAUUAAAAAUAAGGUGGUACUUGUGUACUUGUACAUAAAACCAAAAUUAUAGUUGGGAAAAAAAUAAAUUUAUAUAUGAAAA,0.581
CGAAUUUAAAACAAAAAGGAGGGACUUUAAAAUACCUUCUUGACAAAAAUCAACAAUGCACAACUUACAAAGUGUUCAUUCUAGGGACAAAAUUAAAUAAACAGAAUGUC,0.362
CACCAGGCUGAGGUCCUGAUCAGCUUCAAGGAGUAUGCAGGGAGCUGGGCUUCCAGAAAAUGAACACAGCAGUUCUGCAGAGGACGGGAGGCUGGAAGCUGGGAGGUCAG,0.78
CAGACUGCCUUCCCGGGAUUUCUCUAACCUCUAGAGCGAUGGGAAUCAGCCUUGGACAGUGCCGCCUUCCAGAGCAGAAUCACUGAGCCCCACGGCUGAAGCUGCAUCUG,0.267

# Study 2
# Target: DBP, bZIP domain (human)
# Method: DHFR protein complementation
# Medium: yeast
# Notes: single substitutions, most at no-binding floor
# Relative to: wild-type JUN-FOS pair
# Reading: higher = stronger binding
# Starting sequence: JUN, bZIP domain (human); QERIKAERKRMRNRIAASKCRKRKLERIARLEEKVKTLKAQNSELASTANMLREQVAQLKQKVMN; partner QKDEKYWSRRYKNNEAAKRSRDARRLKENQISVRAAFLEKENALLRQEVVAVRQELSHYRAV
Substitution,binding fitness
V56P,-1.44 natural log
E32Y,-1.3 natural log
V56Q,-1.54 natural log
E44T,-1.32 natural log
S47G,-1.49 natural log
E44L,-1.44 natural log
E54R,-1.41 natural log
S43A,-1.37 natural log
T37K,-1.37 natural log
K36P,-1.45 natural log
E33L,-1.39 natural log
T37M,-1.49 natural log
I28S,-1.39 natural log
E33V,-1.39 natural log
L45I,-1.35 natural log
S47Q,-1.4 natural log
A49L,-1.46 natural log
S47N,-1.49 natural log
M51W,-1.46 natural log
L59H,-1.61 natural log
L31N,-1.47 natural log
N42H,-1.44 natural log
I28C,-1.5 natural log
E44Y,-1.36 natural log

# Study 3
# Target: Centromere-binding protein 1, full length, N-terminal tag (CBF1, Saccharomyces cerevisiae, UniProt P17106, residues 1-351)
# Chain of UniProt P17106 (whole entry, looked up): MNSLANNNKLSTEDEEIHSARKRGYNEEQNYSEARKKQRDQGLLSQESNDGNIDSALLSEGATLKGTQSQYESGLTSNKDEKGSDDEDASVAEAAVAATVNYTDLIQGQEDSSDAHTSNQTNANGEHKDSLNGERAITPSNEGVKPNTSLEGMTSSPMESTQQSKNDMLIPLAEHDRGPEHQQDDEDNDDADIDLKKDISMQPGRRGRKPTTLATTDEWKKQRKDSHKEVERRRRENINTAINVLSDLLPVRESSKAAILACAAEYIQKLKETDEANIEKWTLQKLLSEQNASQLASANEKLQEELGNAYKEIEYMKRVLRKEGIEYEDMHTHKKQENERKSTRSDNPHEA
# Method: protein-binding microarray
# Form: double-stranded DNA, one strand shown
# Medium: in vitro
# Tested at: 0.8 µM
# Notes: whole 60-bp probe, no competitor
# Reading: higher = stronger binding
# Constant ends, left off below: … GTCTTGATTCGCTTGACGCTGCTG
Oligonucleotide,fluorescence intensity
TGTACGAAGCTATCAAACGTGAATATAGTAGTTAGG,525 a.u.
GAAAGAGGACCACCCCACGTGCCAGAATTGTTTTAG,4260 a.u.
CTATTGTGGTGATTTCACGCTTATGTACACGGGTTC,646 a.u.
CCTAACTACTATAACTTCATGACATAGCTTCGTACA,558 a.u.
GAAGTGAAATTTCAGCTGACAGCGAGTTTCATGTAG,587 a.u.
GAACACTGCGCAGGTGACGGTAAAGAAAACAGGTAG,1170 a.u.
CTACGATGGAAGTGACACCAAAAATTATTTTGTTTC,528 a.u.
CTACAAATGGACTTTAGCGTGACCGTGCTTACCTTC,780 a.u.
GAACTCTGCGCAGTGCACGTTCAAAAGAAAAGCTAG,585 a.u.
GAAAATGTACTTGCTGTCATGAGCTCCCTACTGTAG,533 a.u.
GAAACAAATTTTGCTAGCGTGACTCTTTATTACTAG,1090 a.u.
CTAAGAAAAGAACACCACGACTAATAAAACAAATTC,541 a.u.
GAAATAAACAAGTATAACCACCTGATTGAATTGTAG,1090 a.u.
CTATGCTTTTGTTCGCATGTGGTGTTATTCCAGTTC,792 a.u.
CTAGTATTACATCAGCACGAGTAACAACTTATGTTC,602 a.u.
GAAGAGCTTCGCTGACACGTGGGAGGTGGGATATAG,2420 a.u.

# Study 4
# Target: Prothrombin, mature alpha-thrombin (F2, Homo sapiens, UniProt P00734)
# Method: aptamer microarray, sandwich
# Form: DNA with 2'F-ANA
# Medium: in vitro
# Tested at: 200 nM
# Notes: whole 15-mer aptamer, many near background
# Together with: Cy3 exosite-II aptamer, 400 nM
# Reading: higher = stronger binding
# Oligonucleotide: GGTTGGTGTGGTTGG
Modification,mean fluorescence intensity
2'F-ANA at 1 6 7 9 13 14,55.6 a.u.
2'F-ANA at 1 2 5,54.2 a.u.
2'F-ANA at 2 3 6 8 9 10 12 13 14,266 a.u.
2'F-ANA at 2 4 5 7 9 11 13 14 15,45.4 a.u.
2'F-ANA at 3 4 5 6 7 8 11 14,50.5 a.u.
2'F-ANA at 3 5 6 11 14 15,51.4 a.u.
2'F-ANA at 1 2 3 4 6 7 14,59.1 a.u.
2'F-ANA at 2 3 4 9 10 11 13 14,184 a.u.
2'F-ANA at 2 3 5 8 9 15,115 a.u.
2'F-ANA at 2 4 5 7 8 9 10 12 15,54.2 a.u.
2'F-ANA at 3 4 5 6 9 14,49.1 a.u.
2'F-ANA at 1 2 3 4 5 6 8 12 13 14,83.3 a.u.
2'F-ANA at 3 5 10 11 12 15,62.7 a.u.
2'F-ANA at 1 5 6 8 9 12,137 a.u.
2'F-ANA at 1 2 4 5 10 11 12 13 15,56.3 a.u.
2'F-ANA at 2 3 5 6 7 8 11 12 14,64.9 a.u.
2'F-ANA at 2 4 6 7 9 10 11 13 15,74.6 a.u.
2'F-ANA at 1 3 4 5 7 10 11,48.3 a.u.
2'F-ANA at 3 4 8 10 12,402 a.u.
2'F-ANA at 1 3 4 5 8 10 12 13 14 15,61.6 a.u.
2'F-ANA at 1 2 3 4 5 6 11 12 13,67 a.u.
2'F-ANA at 1 2 3 6 7 8 9 10 12 14 15,80.8 a.u.

# Some of these lines once more (study 4):
Modification,mean fluorescence intensity
2'F-ANA at 2 3 5 6 7 8 11 12 14,64.9 a.u.
2'F-ANA at 2 4 6 7 9 10 11 13 15,74.6 a.u.
2'F-ANA at 1 3 4 5 7 10 11,48.3 a.u.
2'F-ANA at 3 4 8 10 12,402 a.u.
2'F-ANA at 1 3 4 5 8 10 12 13 14 15,61.6 a.u.
2'F-ANA at 1 2 3 4 5 6 11 12 13,67 a.u.
